{"data": "Measurements from different studies", "note": "Protocols differ between the studies behind these lines.", "chain of UniProt Q14315 (whole entry, looked up)": "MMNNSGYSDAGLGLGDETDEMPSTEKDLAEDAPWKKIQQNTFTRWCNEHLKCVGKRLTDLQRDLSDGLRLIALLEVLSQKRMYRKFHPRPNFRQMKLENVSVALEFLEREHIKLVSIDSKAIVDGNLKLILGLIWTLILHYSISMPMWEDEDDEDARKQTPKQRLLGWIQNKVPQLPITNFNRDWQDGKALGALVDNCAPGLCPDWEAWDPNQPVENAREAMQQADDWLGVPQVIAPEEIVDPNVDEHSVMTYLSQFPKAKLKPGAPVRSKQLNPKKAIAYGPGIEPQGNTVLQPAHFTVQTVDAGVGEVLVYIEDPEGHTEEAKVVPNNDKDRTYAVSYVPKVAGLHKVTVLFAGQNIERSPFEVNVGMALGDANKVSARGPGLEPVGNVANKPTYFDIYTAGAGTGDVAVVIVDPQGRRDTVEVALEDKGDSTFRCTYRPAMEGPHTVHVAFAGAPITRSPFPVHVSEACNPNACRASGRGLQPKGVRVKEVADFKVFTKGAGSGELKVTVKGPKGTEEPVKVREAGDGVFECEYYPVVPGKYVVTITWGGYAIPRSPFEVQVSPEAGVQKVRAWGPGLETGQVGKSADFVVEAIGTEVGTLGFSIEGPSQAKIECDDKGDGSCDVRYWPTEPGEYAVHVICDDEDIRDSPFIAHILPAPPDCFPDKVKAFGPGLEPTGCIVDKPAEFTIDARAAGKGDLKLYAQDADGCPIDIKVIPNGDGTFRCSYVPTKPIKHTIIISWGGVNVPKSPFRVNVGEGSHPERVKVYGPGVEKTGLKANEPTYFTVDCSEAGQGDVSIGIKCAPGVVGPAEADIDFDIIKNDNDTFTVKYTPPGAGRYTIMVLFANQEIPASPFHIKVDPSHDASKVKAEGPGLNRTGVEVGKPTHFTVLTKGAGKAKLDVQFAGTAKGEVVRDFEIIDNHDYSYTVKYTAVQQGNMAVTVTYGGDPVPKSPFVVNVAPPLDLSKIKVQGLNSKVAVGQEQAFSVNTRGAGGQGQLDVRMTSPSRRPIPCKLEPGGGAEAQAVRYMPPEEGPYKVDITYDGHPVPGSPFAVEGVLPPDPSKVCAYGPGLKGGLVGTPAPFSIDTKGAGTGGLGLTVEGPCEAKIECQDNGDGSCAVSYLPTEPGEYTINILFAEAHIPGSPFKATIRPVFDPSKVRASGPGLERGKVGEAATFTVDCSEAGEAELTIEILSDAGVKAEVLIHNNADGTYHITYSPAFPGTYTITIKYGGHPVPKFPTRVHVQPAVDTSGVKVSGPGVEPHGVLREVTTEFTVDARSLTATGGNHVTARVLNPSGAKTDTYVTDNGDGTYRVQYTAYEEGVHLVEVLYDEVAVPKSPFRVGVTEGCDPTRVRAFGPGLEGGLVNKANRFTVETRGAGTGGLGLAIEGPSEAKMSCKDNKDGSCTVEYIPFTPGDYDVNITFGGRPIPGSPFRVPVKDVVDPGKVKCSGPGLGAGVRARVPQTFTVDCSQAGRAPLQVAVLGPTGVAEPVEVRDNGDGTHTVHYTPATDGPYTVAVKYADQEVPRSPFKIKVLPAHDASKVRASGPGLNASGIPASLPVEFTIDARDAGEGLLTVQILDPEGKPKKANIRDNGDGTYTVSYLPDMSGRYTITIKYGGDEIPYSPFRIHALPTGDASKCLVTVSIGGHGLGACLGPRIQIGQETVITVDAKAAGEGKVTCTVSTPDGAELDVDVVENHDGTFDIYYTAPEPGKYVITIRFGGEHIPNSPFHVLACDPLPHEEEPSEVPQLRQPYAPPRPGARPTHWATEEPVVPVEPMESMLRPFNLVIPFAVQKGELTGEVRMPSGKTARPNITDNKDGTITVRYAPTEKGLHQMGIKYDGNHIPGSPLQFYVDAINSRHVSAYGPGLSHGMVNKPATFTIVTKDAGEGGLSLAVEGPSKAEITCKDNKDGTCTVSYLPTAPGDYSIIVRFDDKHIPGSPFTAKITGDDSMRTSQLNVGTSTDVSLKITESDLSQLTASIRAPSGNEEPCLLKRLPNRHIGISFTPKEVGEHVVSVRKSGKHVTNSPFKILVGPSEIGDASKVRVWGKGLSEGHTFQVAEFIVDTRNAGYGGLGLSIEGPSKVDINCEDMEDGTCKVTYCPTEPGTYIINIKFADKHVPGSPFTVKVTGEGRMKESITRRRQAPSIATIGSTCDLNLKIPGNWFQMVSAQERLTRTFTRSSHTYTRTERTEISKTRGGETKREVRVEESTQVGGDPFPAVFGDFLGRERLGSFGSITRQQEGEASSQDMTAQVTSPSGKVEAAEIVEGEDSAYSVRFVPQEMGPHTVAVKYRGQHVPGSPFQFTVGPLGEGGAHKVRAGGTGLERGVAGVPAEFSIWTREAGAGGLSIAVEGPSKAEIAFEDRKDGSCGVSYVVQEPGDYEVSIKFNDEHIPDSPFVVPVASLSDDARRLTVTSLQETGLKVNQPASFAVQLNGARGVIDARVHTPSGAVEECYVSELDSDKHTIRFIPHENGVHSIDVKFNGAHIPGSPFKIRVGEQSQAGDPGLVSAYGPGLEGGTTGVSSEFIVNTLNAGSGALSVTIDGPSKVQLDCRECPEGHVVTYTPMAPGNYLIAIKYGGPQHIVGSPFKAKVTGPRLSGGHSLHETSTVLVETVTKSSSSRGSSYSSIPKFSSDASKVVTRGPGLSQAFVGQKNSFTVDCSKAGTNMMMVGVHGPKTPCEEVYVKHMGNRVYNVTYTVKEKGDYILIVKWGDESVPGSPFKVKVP"}
{"SMILES": "COc1cc2c(Oc3ccc4[nH]c(C)cc4c3F)ccnc2cc1OCC1(N)CC1", "test system": "paediatric refractory sarcoma patients", "conditions": "12 mg", "quantity": "grade 3 T-wave abnormality", "value": "0%"}
{"SMILES": "CC[C@H](C)[C@H](NC(=O)[C@H](Cc1ccccc1)NC(=O)[C@H](CCC(=O)O)NC(=O)[C@H](CCCNC(=N)N)NC(=O)[C@H](C)NC(=O)[C@H](C)NC(=O)[C@H](CCC(N)=O)NC(=O)[C@H](CCC(=O)O)NC(=O)[C@H](CCC(=O)O)NC(=O)[C@H](CC(C)C)NC(=O)[C@H](Cc1ccc(O)cc1)NC(=O)[C@H](CO)NC(=O)[C@H](CO)NC(=O)[C@@H](NC(=O)[C@H](CC(=O)O)NC(=O)[C@H](CO)NC(=O)[C@@H](NC(=O)[C@H](Cc1ccccc1)NC(=O)[C@@H](NC(=O)CNC(=O)[C@H](CCC(=O)O)NC(=O)[C@H](C)NC(=O)CCc1c[nH]cn1)[C@@H](C)O)[C@@H](C)O)C(C)C)C(=O)N[C@@H](C)C(=O)N[C@@H](Cc1c[nH]c2ccccc12)C(=O)N[C@@H](CC(C)C)C(=O)N[C@H](C(=O)N[C@@H](CCCNC(=N)N)C(=O)NCC(=O)N[C@@H](CCCNC(=N)N)C(=O)N[C@@H](CCCCNC(=O)COCCOCCNC(=O)COCCOCCNC(=O)CC[C@H](NC(=O)CCCCCCCCCCCCCCCCC(=O)O)C(=O)O)C(=O)NCC(=O)NCC(=O)N[C@@H](CO)C(=O)N[C@@H](CCCCNc1c(NCCCCCN(O)C(=O)CCC(=O)NCCCCCN(O)C(=O)CCC(=O)NCCCCCN(O)C(C)=O)c(=O)c1=O)C(=O)O)C(C)C [zirconium-89 labelled]", "test": "ex vivo gamma counting", "test system": "rat, skin at injection site", "conditions": "subcutaneous, 3 nmol/kg, 24 h", "quantity": "tissue uptake", "value": "2.13 %ID/g"}
{"SMILES": "COC(=O)N[C@H](C(=O)N1CCC[C@H]1c1ncc(-c2ccc(-c3ccc(-c4cnc([C@@H]5CCCN5C(=O)[C@@H](NC(=O)OC)C(C)C)[nH]4)cc3)cc2)[nH]1)C(C)C", "tested on": "Hepatitis C virus", "test system": "replicon cells", "conditions": "75% effect level, with: IFN-alpha, ratio 2.5:1", "quantity": "combination index", "value": 0.53}
{"SMILES": "C[C@@H]1C[C@@H]([C@H](O)CC2CC(=O)NC(=O)C2)C(=O)[C@@H](C)C1", "tested on": "Mus musculus", "test": "gene silencing, high-content imaging", "test system": "LDR reporter GFP cells", "conditions": "30 h, retest run 2", "quantity": "Emax", "value": "72%"}
{"SMILES": "O=C(N[C@H](CO)[C@H](O)c1ccc([N+](=O)[O-])cc1)C(Cl)Cl", "tested on": "human coronavirus OC43", "test": "virus-induced cell killing", "test system": "MRC-5", "conditions": "screen", "quantity": "maximum inhibition", "value": "13.6%"}
{"SMILES": "C[C@H]1CN(c2n[nH]c3nc(N[C@H]4CC[C@H](NS(=O)(=O)CCC(F)(F)F)CC4)ncc23)CCO1", "tested on": "Filamin-C (FLNC, Homo sapiens, UniProt Q14315)", "test": "Kinobeads competition, measured: FLNC", "conditions": "0.8 µM, unit not given", "scale": "baseline: vehicle", "quantity": "remaining binding", "value": 1.08}
{"SMILES": "NC(=O)c1ccc(N)nc1", "tested on": "human coronavirus OC43", "test": "virus-induced cell killing", "test system": "MRC-5", "conditions": "screen", "quantity": "maximum inhibition", "value": "5.97%"}
{"SMILES": "CC[C@H](C)[C@@H]1NC(=O)[C@@H]2CCCN2C(=O)[C@H](CC(C)C)NC(=O)[C@H](CC(C)C)NC(=O)CNC(=O)[C@@H](NC(=O)[C@@H](NC(=O)[C@H](CC(=O)O)NC(=O)CNC(=O)[C@@H](NC(=O)[C@H](C)NC(=O)CNC(=O)[C@H](CCCCN)NC(=O)[C@H](CC(C)C)NC(=O)[C@H](CC(C)C)NC(=O)[C@H](CCCCN)NC(=O)CNC(=O)[C@@H](NC(=O)[C@@H](N)CC(C)C)C(C)C)C(C)C)C(C)C)CSSC[C@@H](C(=O)O)NC1=O", "test": "RNA-seq, measured: Bax mRNA", "test system": "mouse traumatic brain injury, frontal cortex and hippocampus", "conditions": "dose not given", "scale": "baseline: TBI plus compound vs TBI", "quantity": "log2 fold change", "value": 0.884}
{"SMILES": "Oc1ccc(Nc2nc(-c3ccc(Cl)cc3)cs2)cc1", "tested on": "human coronavirus OC43", "test": "virus-induced cell killing", "test system": "MRC-5", "conditions": "screen", "quantity": "maximum inhibition", "value": "31.7%"}
{"SMILES": "C[C@@H](O)[C@@H](CO)NC(=O)[C@@H](CCCNC(=N)N)NC(=O)[C@@H]1CCCN1C(=O)[C@@H]1CSSC[C@H](NC(=O)[C@H](Cc2ccccc2)NC(=O)CN2CCN(CC(=O)O)CCN(CC(=O)O)CCN(CC(=O)O)CC2)C(=O)N[C@@H](Cc2ccc(O)cc2)C(=O)N[C@@H](Cc2ccccc2)C(=O)N[C@@H](CCC(N)=O)C(=O)N[C@@H](CC(N)=O)C(=O)N1 [gallium-68 labelled]", "test system": "healthy Wistar rat, muscle", "conditions": "intravenous, 8 MBq, 120 min, individual animals", "quantity": "tissue uptake", "value": "0.07 %ID/g"}
{"SMILES": "CCCCc1c([N+](=O)[O-])oc2ccc3ccccc3c12", "tested on": "Mycobacteroides abscessus", "test": "REMA", "test system": "ATCC 19977", "quantity": "MIC90", "value": "32 µg/mL"}
{"SMILES": "CC[n+]1c(-c2ccccc2)c2cc(N)ccc2c2ccc(N)cc21", "tested on": "human coronavirus OC43", "test": "virus-induced cell killing", "test system": "MRC-5", "conditions": "screen", "quantity": "maximum inhibition", "value": "63.2%"}
{"SMILES": "Nc1ncnc2c1ncn2[C@@H]1O[C@@H]2COP(=O)(O)O[C@H]3[C@@H](O)[C@H](n4cnc5c(=O)[nH]cnc54)O[C@@H]3COP(=O)(O)O[C@H]2[C@H]1O", "tested on": "West Nile virus", "test": "RNA sequencing, measured: effectors, RHO GTPase, R-HSA-195258", "test system": "HFF-1 cells", "conditions": "concentration not given, upregulated pathway", "scale": "baseline: WNV-infected untreated cells", "quantity": "fold enrichment", "value": 2.56}
{"SMILES": "Cn1c(=O)ccc2ccc(F)c(CCNC[C@H]3CN(c4cnc5c(n4)NC(=O)CO5)C(=O)O3)c21", "tested on": "Klebsiella oxytoca", "quantity": "MIC90", "value": "0.5 µg/mL"}
{"SMILES": "CC[C@H](C)[C@H](NC(=O)[C@H](C)NC(=O)[C@H](CCCCN)NC(=O)[C@H](CC(C)C)NC(=O)[C@H](C)NC(=O)[C@@H](NC(=O)[C@H](Cc1c[nH]cn1)NC(=O)[C@H](CC(C)C)NC(=O)[C@@H](NC(=O)[C@@H](NC(=O)[C@H](CCCCN)NC(=O)[C@H](C)NC(=O)[C@H](C)NC(=O)[C@H](CO)NC(=O)[C@H](CCCCN)NC(=O)[C@H](Cc1ccccc1)NC(=O)[C@@H](NC(=O)[C@H](CCCCN)NC(=O)[C@H](CC(C)C)NC(=O)[C@H](Cc1ccccc1)NC(=O)[C@H](CO)NC(=O)[C@H](CCCCN)NC(=O)[C@H](Cc1c[nH]c2ccccc12)NC(=O)[C@H](CCCCN)NC(C)=O)[C@@H](C)O)[C@@H](C)O)C(C)C)[C@@H](C)O)C(=O)N[C@@H](CO)C(=O)N[C@@H](CO)C(N)=O", "tested on": "Klebsiella pneumoniae", "test system": "ATCC 1706", "quantity": "MIC geometric mean", "value": "2 µg/mL"}
{"SMILES": "C[C@H]1CCC/C=C/[C@@H]2C[C@H](O)C[C@H]2[C@H](O)/C=C/C(=O)O1", "tested on": "Toxoplasma gondii", "test": "parasite growth, luciferase reporter", "test system": "HFF, tachyzoite", "conditions": "72 h", "quantity": "EC50", "value": "64 nM"}
{"SMILES": "COc1c(CCC[P+](c2ccccc2)(c2ccccc2)c2ccccc2)cc2c(c1OC)OCO2.[I-]", "tested on": "TK-10", "test": "SRB", "quantity": "LC50", "value": "> -4 log M"}
{"SMILES": "Cc1ccc(CSc2ncnc3c2ccn3[C@@H]2O[C@H](CO)[C@@H](O)[C@H]2O)cc1", "tested on": "Toxoplasma gondii", "test": "[3H]uracil incorporation", "test system": "human fibroblasts, RH wild type", "conditions": "50 µM", "quantity": "survival", "value": "0%"}
{"SMILES": "COc1ccc([C@@]23Oc4cc(OC)cc(OC)c4[C@@]24N=C(C)N[C@@]4(O)[C@H](C(=O)N(C)OC)[C@H]3c2ccccc2)cc1", "tested on": "Hepatitis E virus", "test": "viral replication", "test system": "HepG2 HEV-1 replicon, genotype 1", "conditions": "48 h", "quantity": "EC50", "value": "0.4 nM"}
{"note": "Excerpt of the above:"}
{"SMILES": "COc1c(CCC[P+](c2ccccc2)(c2ccccc2)c2ccccc2)cc2c(c1OC)OCO2.[I-]", "tested on": "TK-10", "test": "SRB", "quantity": "LC50", "value": "> -4 log M"}
